Assay results pooled from the literature.
Numbers after ± are the reported error.

`C=CCn1c(=O)c2cnc(Nc3ccc(N4CCN(C)CC4)cc3)nc2n1-c1ccc2c(n1)[C@@](O)(CC)CC2` gave an AUC(0-24) of 43900 ng·h/mL (female NOD/SCID mouse OVCAR-3 xenograft, plasma; oral, 100 mg/kg once daily, :3).
Under “cumulative urinary excretion”, `CC[C@H](C)CCCCC(=O)N[C@@H](CCN)C(=O)N[C@H](C(=O)N[C@@H](CCN)C(=O)N[C@H]1CCNC(=O)[C@H]([C@@H](C)O)NC(=O)[C@H](CCN)NC(=O)[C@H](CCN)NC(=O)[C@H](CC(C)C)NC(=O)[C@@H](Cc2ccccc2)NC(=O)[C@H](CCN)NC1=O)[C@@H](C)O` is recorded as 0.632 mg (LC-MS/MS; mild renal insufficiency patients, urine; IV, 0.75 mg/kg, 0-6 h, arithmetic mean).
`C=CC(=O)NC1CCN(c2ncc3ncnc(Nc4ccc(Oc5ccc6c(c5)ncn6C)c(C)c4)c3n2)CC1`: “adverse events incidence” 6% (item: infections and infestations (SOC); human male; oral, dose not given, CTCAE on-treatment AEs).
`C=CC(=O)NC1CCN(c2ncc3ncnc(Nc4ccc(Oc5ccc6c(c5)ncn6C)c(C)c4)c3n2)CC1`: “estimated fraction absorbed” greater than 85% (healthy male volunteers; oral, 60 mg).
`Cc1ccc([C@H]2N[C@@H](c3ccc(-c4ccccn4)cc3)CO[C@@H]2C)cc1` has a logD of greater than 4.7 (shake-flask, 1-octanol/buffer; pH 7.4).
`C=CC(=O)NC1CCN(c2ncc3ncnc(Nc4ccc(Oc5ccc6c(c5)ncn6C)c(C)c4)c3n2)CC1` gave an AUC0-∞ reduction of 25% (human, male, plasma; oral, 30 mg, fed; reference: fasted).
The logD of `CC1(CNC(=O)[C@H](CN)NC(=O)c2ccc(-c3ccccc3)cc2)NC(=O)NC1=O` (stereo partly drawn) is reported as 1.01 (octanol/buffer; pH 7.4).
For `Cc1ccc(C)c(OCCCC(C)(C)C(=O)O)c1`, “trough plasma concentration” read 1990 ng/mL (human, plasma; oral, dose not given, day 14 predose, mean).
For `CCOc1c([C@H](C)n2nc(C)c3c(N)ncnc32)cc(Cl)c(F)c1[C@@H]1CNC(=O)C1`, “observations with PR ≤200 ms” read 100% (ECG; previously treated B-cell malignancy patients; oral, 45 mg once daily, baseline below thresholds).
With `CN1CCC(Nc2ncnc3ccc(-c4cccc(N5CCOCC5)c4)cc23)CC1` the CLint was 34 µL/min/mg (human liver microsomes).
`Cn1nc2ccccc2c1[C@H]1COC(C)(C)[C@@H](c2ccc(-c3ccccc3)cc2)N1` gave a logD of greater than 4.7 (shake-flask, 1-octanol/buffer; pH 7.4).
`Cc1cc(-c2nccc3c2ccn3CC(=O)Nc2ccc(-c3cnccn3)cn2)ccn1` — result for “general disorder TEAEs”: 16.7% (healthy human volunteers; oral, 20 mg single dose, single ascending dose).
`c1ccc2cc3ccccc3cc2c1` has a log K(PDMS-water) of 3.87 ± 0.04 (fresh water; 12 (unit not given), 20 °C).
`CCOC(=O)N1C[C@@H](c2ccc(C(F)(F)F)cc2)N[C@@H](c2ccc(F)c(C#N)c2)C1` gave a logD of greater than 4.7 (shake-flask, 1-octanol/buffer; pH 7.4).
`Cc1cc(C)c(CNC(=O)c2cc(Cl)c3c(c2C)O[C@@](C)([C@H]2CC[C@H](N(C)C)CC2)O3)c(=O)[nH]1` — result for “grade ≥3 TEAE patients”: 66.7% (CTCAE v4.0; human, relapsed/refractory NHL; oral, 200 mg once daily, onset after cycle 1 day 1).
For `CN1C[C@H](COc2nccc3c(NCc4ccco4)cc(Cl)nc23)OC1=O`, the QT interval was 193 ms (rabbit NZW female, isolated Langendorff heart; 3 µM, 15 min).
`Cc1ccc([C@H]2N[C@@H](C3CCCCC3)CO[C@@H]2C)cc1` has a logD of greater than 4.7 (shake-flask, 1-octanol/buffer; pH 7.4).
`Cc1ccc([C@@H]2O[C@H](CO)[C@@H](O)[C@H](O)[C@H]2O)cc1Cc1ccc(-c2ccc(F)cc2)s1` — result for “urinary magnesium excretion change”: -37.7 mg (Japanese type 2 diabetes patients; 400 mg, day 1, 24 h urine collection; reference: baseline).
With `O=S(=O)(NCc1ccccn1)c1cc(Cl)c(Cl)cc1Cl` the logD was 3.02 (octanol/buffer; pH 7.4).
`Cc1nc2ccc(OCc3ccc(C(F)(F)F)cc3)cc2[nH]1` has a tissue concentration of 2.5 ± 0.8 ng/g (Balb/c mouse, male, kidney; oral, 10 mg/kg, 72 h).
Under “grade 2 TEAE”, `C[C@@H](c1ncncc1F)[C@](O)(Cn1cncn1)c1ccc(F)cc1F` is recorded as 0% (human; oral, 400 mg, drug interaction trial).
`Nc1c(CC(=O)O)cccc1C(=O)c1ccc(Br)cc1`: “passive intrinsic clearance” 102 mL/min/kg (cynomolgus monkey, suspended hepatocytes; unbound, scaled in vitro).
`CCN1/C(=C/C(C)=O)Sc2ccc(F)cc21` — result for “systolic blood pressure”: 120 ± 8 mmHg (cynomolgus monkey; oral, 10 mg/kg, 4 h post-dose).
The intact complex of `O=C(O)CN1CCCN2CCN(Cc3ccccc3)CCCN(CC1)Cc1cccc(n1)C2` is reported as 96% (64Cu complex; 24 h, pH 7.4, 37 °C, together with: DOTA excess).
`Cc1nc(C)c(-c2ccnc(Nc3ccc(F)cc3)n2)s1` gave a logD of 4.2 (octanol/buffer; 67 µM, pH 7.4).
For `CC(C)(F)C[C@H](N[C@@H](c1ccc(-c2ccc(S(C)(=O)=O)cc2)cc1)C(F)(F)F)C(=O)NC1(C#N)CC1`, “cysteine adduct formation” read less than 1% (MES buffer; 100 µM, 23 h, pH 5.5, 37 °C, together with: cysteine 10 mM).
With `COc1ccc2c(c1)CN(C(=O)CCN1CCC(Cc3ccccc3)CC1)CC[S@@+]2[O-]` the PQ interval was 88 ± 9 ms (telemetry; conscious male beagle dogs; intravenous, NG, 24 h).
For `O=C1CC[C@H](N2Cc3cc(N4CCN(CC5CCN(c6ccc([C@@H]7c8ccc(O)cc8CC[C@@H]7c7ccccc7)cc6)CC5)CC4)ccc3C2=O)C(=O)N1`, “participants with TRAEs” read 16.7% (human; oral, 200 mg, together with: rosuvastatin 10 mg).
The recovery of `CC(C)(C)c1ccc(O)c(CN(Cc2cc(C(C)(C)C)ccc2O)C2CCC(NC(N)=O)CC2)c1` (stereo not drawn) is reported as 99.1 ± 0.95% (mouse brain; 5 ng/g, 3 months, 4 °C, refrigerator storage).
`CCn1c(=O)c(-c2cc(NC(=O)Nc3ccccc3)c(F)cc2Br)cc2cnc(NC)cc21` — result for “freeze-thaw stability accuracy”: 7.2% (human plasma; 4000 ng/mL, -20 °C, 3 cycles, high QC).
For `CS(=O)(=O)N(CC(=O)Nc1ccccc1C(=O)N1CCOCC1)c1ccc(Cl)cc1`, the logD was 1.75 (octanol/buffer; pH 7.4).
For `CCc1nc(C(N)=O)c(Nc2ccc(N3CCC(N4CCN(C)CC4)CC3)c(OC)c2)nc1NC1CCOCC1`, the Cmax was 886 ng/mL (Japanese patients, plasma; oral, 200 mg, cycle 1 day 28, multiple doses, median).
`Cc1cc(Nc2cc3ncccc3c(N[C@@H]3C[C@H]4CC[C@@H](C3)N4CCC#N)n2)n[nH]1`: “skin subcutaneous disorders incidence” 17% (healthy human subjects; oral, 300 mg, 14 days, multiple ascending dose).
Under “tumours per rat”, `O=[N+]([O-])c1cc2c3ccccc3ccc2c2ccccc12` is recorded as 0.13 ± 0.29 (item: others mammary tumours; female Sprague-Dawley rats; intramammary, 12.3 µmol per rat, up to 32 weeks).
`CC(C)(C(=O)N1CCOc2c(C#N)cncc2C1)C(F)F`: “subjects with TEAE” 0% (item: blood and lymphatic disorders; human, both sexes; oral, 10 mg once daily, 14 days, multiple ascending dose).
`CCc1cc(C(=O)NC)c2nccc(N3CCc4c(cc(Cn5ccnc5)cc4-c4cn(C)nc4C(F)(F)F)C3=O)c2c1` — result for “change in clinical chemistry or haematology parameter”: 54.5% (item: TBA; Sprague Dawley rat; oral, 100 mg/kg once daily, 7 days; reference: vehicle).
`COc1cc(C(=O)N2CCC3(CC2)CC(=O)c2c(cnn2C(C)C)C3)cc(-c2ccc(C(=O)O)cc2)n1`: “LDL cholesterol change from baseline” -8.4% (direct measurement; human, fasting serum; 100 mg once daily, day 13, adjusted geometric mean; reference: placebo).
For `NC1(C(=O)N[C@@H](CCO)c2ccc(Cl)cc2)CCN(c2nc[nH]c3nccc2-3)CC1`, “incidence of Pyrexia” read 0% (metastatic CRPC patients; 320 mg b.i.d., grade 3 to 4, treatment-related, together with: enzalutamide 160 mg daily).
`[O]=[Co].[O]=[Co][O][Co]=[O]` gave a cobalt concentration of 23.3 µg/g (rat, male, faeces, 24-h collection; oral gavage, single, 300 mg/kg (220 mg Co/kg), day 3, vehicle 0.5% HPMC; reference: vehicle control subtracted).
With `C[C@@H](NC(=O)N1C(=O)[C@H](Cc2ccnc(N)c2)[C@H]1C(=O)O)C1CCCCC1` the CL was 5.4 mL/min/kg (UPLC-MS/MS; healthy adult Chinese volunteers, plasma; continuous intravenous infusion, 1.5 mg/kg/h, day 6 of 5-day infusion, mean).
The SUV of `CNc1ccc(-c2nc3ccc(O)cc3s2)cc1` [carbon-11 labelled] is reported as 11.4 ± 7.54 (ex vivo biodistribution; APP/PS1 mouse, AD model, bladder; intravenous, 30 min).
`CC(C)C[C@H](NC(=O)[C@@H](Cc1c[nH]c2ccccc12)NC(=O)[C@H](Cc1ccc(O)cc1)NC(=O)[C@H](CO)NC(=O)[C@H](Cc1c[nH]c2ccccc12)NC(=O)[C@H](Cc1c[nH]cn1)NC(=O)[C@@H]1CCC(=O)N1)C(=O)N[C@@H](CCCNC(=N)N)C(=O)N1CCC[C@H]1C(=O)NCC(N)=O`: “patients, drug-related Dermatitis TEAEs” 1.5% (Chinese CPP children; intramuscular, 22.5 mg, 12 months, day 1, month 6).
For `O=C(Nc1nc2cccc(-c3ccc(CN4CCS(=O)(=O)CC4)cc3)n2n1)C1CC1`, “treatment-emergent adverse events” read 0% (item: ear and labyrinth disorders; human rheumatoid arthritis patients; oral, 300 mg once daily, 4 weeks, regardless of relatedness).
`Cn1cc(-c2cn3nccc3c(-c3cnn([C@]4(CC#N)C[C@@H](C#N)C4)c3)n2)cn1` — result for “peak to trough ratio”: 29.8 (healthy humans fed, plasma; oral, 1200 mg once daily, day 10, geometric mean).
With `O=C(COc1ccc(Cl)cc1)NC12CC(c3nnc([C@H]4C[C@@H](OC(F)(F)F)C4)o3)(C1)C2` the procedural pain was 35.3% (humans, MAD; oral, dose not given, 14 days, all compound doses).
`C/C=C/C[C@@H](C)C(=O)[C@H]1C(=O)N[C@@H](C(C)C)C(=O)N(C)CC(=O)N(C)[C@@H](CC(C)C)C(=O)N[C@@H](C(C)C)C(=O)N(C)[C@@H](CC(C)C)C(=O)N[C@@H](C)C(=O)N[C@H](C)C(=O)N(C)[C@@H](CC(C)C)C(=O)N(C)[C@@H](CC(C)C)C(=O)N(C)[C@@H](C(C)C)C(=O)N1C`: “total plasma concentration” 5390 ng/mL (Sprague Dawley rat, plasma; intravenous infusion, 0.89 mg/h/kg, 4 h, 4.5 h constant infusion).
`CCc1c(-c2ccccc2)c(-c2ccccc2)nn1-c1ccccc1-c1cccc(OCC(=O)O)c1` gave a concentration of 4.05 ng/mL (Sprague-Dawley rat, -Brain homogenate; oral, 10 mg/kg, 8 h).
Under “maximum ACTH level”, `N#Cc1ccc2c(c1)[C@H]1CCCN(C(=O)c3ccc4[nH]cnc4c3)[C@H]1C2` is recorded as 11.4 pmol/L (human; 20 mg, day 15).
`CCOC(=O)N1C[C@@H](c2cccc(Br)c2)N[C@@H](c2ccc(N3CCCC3)cc2)C1` gave a logD of greater than 4.7 (shake-flask, 1-octanol/buffer; pH 7.4).
The Ctau of `Cc1cc(/C=C/C#N)cc(C)c1Nc1ccnc(Nc2ccc(C#N)cc2)n1` is reported as 50 ng/mL (human, haemodialysis patients, plasma; oral, dose not given, 24 h, steady state, fixed-dose combination).
`CNCCCN1c2ccccc2CCc2cc(O)ccc21`: “chromatographic hydrophobicity index” 49.9 (reverse phase LC, C18; acetonitrile gradient, 0.1% formic acid; converted from retention time; reference: Valko CHI standards).
The adverse events of `CCC(C)n1ncn(-c2ccc(N3CCN(c4ccc(OCC5COC(Cn6cncn6)(c6ccc(Cl)cc6Cl)O5)cc4)CC3)cc2)c1=O` (stereo not drawn) is reported as 7% (healthy human volunteers; oral, 200 mg, event Diarrhoea, continued dosing).
`CC[C@@H]1CN(C(=O)NCC(F)(F)F)C[C@@H]1c1cnc2cnc3[nH]ccc3n12`: “absorption lag time” 0.154 h (population PK modelling; human; oral, extended-release formulation, outliers re-estimated).
`COc1ncc(-c2nc3c(n2C(C)C)[C@H](c2ccc(Cl)cc2)N(c2cc(Cl)cn(C)c2=O)C3=O)c(OC)n1` has a Cmax of 1530 ng/mL (LC-MS/MS; human, plasma; oral, 250 mg, cycle 2 day 1, high-dose arm).

Some of these lines once more:
For `O=C(Nc1nc2cccc(-c3ccc(CN4CCS(=O)(=O)CC4)cc3)n2n1)C1CC1`, “treatment-emergent adverse events” read 0% (item: ear and labyrinth disorders; human rheumatoid arthritis patients; oral, 300 mg once daily, 4 weeks, regardless of relatedness).
`COc1cc(C(=O)N2CCC3(CC2)CC(=O)c2c(cnn2C(C)C)C3)cc(-c2ccc(C(=O)O)cc2)n1`: “LDL cholesterol change from baseline” -8.4% (direct measurement; human, fasting serum; 100 mg once daily, day 13, adjusted geometric mean; reference: placebo).
For `CCc1nc(C(N)=O)c(Nc2ccc(N3CCC(N4CCN(C)CC4)CC3)c(OC)c2)nc1NC1CCOCC1`, the Cmax was 886 ng/mL (Japanese patients, plasma; oral, 200 mg, cycle 1 day 28, multiple doses, median).
`CCOC(=O)N1C[C@@H](c2ccc(C(F)(F)F)cc2)N[C@@H](c2ccc(F)c(C#N)c2)C1` gave a logD of greater than 4.7 (shake-flask, 1-octanol/buffer; pH 7.4).
With `CN1CCC(Nc2ncnc3ccc(-c4cccc(N5CCOCC5)c4)cc23)CC1` the CLint was 34 µL/min/mg (human liver microsomes).
For `CN1C[C@H](COc2nccc3c(NCc4ccco4)cc(Cl)nc23)OC1=O`, the QT interval was 193 ms (rabbit NZW female, isolated Langendorff heart; 3 µM, 15 min).
Under “tumours per rat”, `O=[N+]([O-])c1cc2c3ccccc3ccc2c2ccccc12` is recorded as 0.13 ± 0.29 (item: others mammary tumours; female Sprague-Dawley rats; intramammary, 12.3 µmol per rat, up to 32 weeks).
`CC(C)(C(=O)N1CCOc2c(C#N)cncc2C1)C(F)F`: “subjects with TEAE” 0% (item: blood and lymphatic disorders; human, both sexes; oral, 10 mg once daily, 14 days, multiple ascending dose).
